Assay results pooled from the literature.
Cell line: MT4

SMILES | effect on | method | time | CC50 [µM]
N#Cc1ccc(Nc2nccc(C(=O)c3c(F)cc(F)cc3F)n2)cc1 | cell growth or viability | ATP luminescence | 5 days | 57.1
Cc1cccc(-c2cc(C#N)cc(Oc3c(C(F)(F)F)ccn(Cc4n[nH]c(=O)n4C)c3=O)c2)c1 | cell growth or viability | MTT |  | 26.4
Cc1cc(C)cc(S(=O)(=O)c2c(C(N)=O)[nH]c3ccc(Cl)cc23)c1 | cell growth or viability | MTT | 5 days | 5.52
COc1cccc2c(Oc3c(C(F)(F)F)ccn(Cc4n[nH]c(=O)n4C)c3=O)cc(C)nc12 | cell growth or viability | MTT |  | 244
O=C(CCN(CCC(=O)NC(Cc1c[nH]c2ccccc12)C(=O)O)C(=O)CCOCC(COCCC(=O)N(CCC(=O)NC(Cc1c[nH]c2ccccc12)C(=O)O)CCC(=O)NC(Cc1c[nH]c2ccccc12)C(=O)O)(COCCC(=O)N(CCC(=O)NC(Cc1c[nH]c2ccccc12)C(=O)O)CCC(=O)NC(Cc1c[nH]c2ccccc12)C(=O)O)COCCC(=O)N(CCC(=O)NC(Cc1c[nH]c2ccccc12)C(=O)O)CCC(=O)NC(Cc1c[nH]c2ccccc12)C(=O)O)NC(Cc1c[nH]c2ccccc12)C(=O)O (centres unmarked) |  |  | 5 (unit not given) | > 100
COc1cc(F)c(C(=O)c2ccnc(Nc3ccc(C#N)cc3)n2)c(F)c1 | cell growth or viability | ATP luminescence | 5 days | 57.1
Cc1cc(C)cc(S(=O)(=O)c2c(C(=O)NC3CC4(C3)CN(Cc3n[nH]c(=O)[nH]3)C4)[nH]c3ccc(Cl)cc23)c1 | cell growth or viability | MTT | 5 days | 65.6
O=C(CCN(CCC(=O)NC(Cc1c[nH]c2ccccc12)C(=O)O)C(=O)c1cc(C(=O)N(CCC(=O)NC(Cc2c[nH]c3ccccc23)C(=O)O)CCC(=O)NC(Cc2c[nH]c3ccccc23)C(=O)O)cc(C(=O)N(CCC(=O)NC(Cc2c[nH]c3ccccc23)C(=O)O)CCC(=O)NC(Cc2c[nH]c3ccccc23)C(=O)O)c1)NC(Cc1c[nH]c2ccccc12)C(=O)O (centres unmarked) |  |  | 5 (unit not given) | > 100
